Measurements collected from several papers.
Every numbered part comes from another study and shows a few of its results, in no order.

Study 1
Target: Prothrombin, mature alpha-thrombin (F2, Homo sapiens, UniProt P00734)
Technique: aptamer microarray, sandwich
Molecule type: DNA with 2'F-ANA
Medium: in vitro
Concentration: 200 nM
Notes: whole 15-mer aptamer, many near background
Together with: Cy3 exosite-II aptamer, 400 nM
Direction: higher = stronger binding
Endpoint: mean fluorescence intensity
Oligonucleotide: GGTTGGTGTGGTTGG
2'F-ANA at 1 2 3 8 11 12: 433 a.u.
2'F-ANA at 1 2 5 6 7 9 13 14 15: 47.7 a.u.
2'F-ANA at 1 4 6 7 9 11 12 13 15: 119 a.u.
2'F-ANA at 3 5 9 10 11 12 15: 110 a.u.
2'F-ANA at 1 3 4 5 7 9 11 12 14 15: 54.5 a.u.
2'F-ANA at 1 2 4 6 9 10 11 14: 49.3 a.u.
2'F-ANA at 1 5 10 12: 46.9 a.u.
2'F-ANA at 1 3 4 5 6 8 9 12 13 14 15: 50.1 a.u.
2'F-ANA at 1 5 7 8 12 13 15: 89.4 a.u.
2'F-ANA at 1 2 4 5 7 8 10 11 12 13 14 15: 50.3 a.u.
2'F-ANA at 2 4 6 7 8 9 10 12 15: 125 a.u.
2'F-ANA at 1 3 9 10 14 15: 58.8 a.u.
2'F-ANA at 2 3 5 6 8 9 10 11 14: 51.4 a.u.
2'F-ANA at 3 5 8 9 10 13: 57.5 a.u.
2'F-ANA at 4 6 7 8 12: 628 a.u.
2'F-ANA at 1 2 3 4 10 11 12 13 14: 50.9 a.u.
2'F-ANA at 1 3 5 7 9 10 11 13 14: 48.2 a.u.
2'F-ANA at 2 4 7 8 9 10 14: 69.9 a.u.
2'F-ANA at 1 2 4 7 8 10 11 15: 48.7 a.u.
2'F-ANA at 2 3 4 6 14 15: 270 a.u.

Study 2
Target: Ras GTPase-activating protein-binding protein 1, full length (G3BP1, Homo sapiens, UniProt Q13283)
UniProt Q13283, sequence (whole entry, looked up): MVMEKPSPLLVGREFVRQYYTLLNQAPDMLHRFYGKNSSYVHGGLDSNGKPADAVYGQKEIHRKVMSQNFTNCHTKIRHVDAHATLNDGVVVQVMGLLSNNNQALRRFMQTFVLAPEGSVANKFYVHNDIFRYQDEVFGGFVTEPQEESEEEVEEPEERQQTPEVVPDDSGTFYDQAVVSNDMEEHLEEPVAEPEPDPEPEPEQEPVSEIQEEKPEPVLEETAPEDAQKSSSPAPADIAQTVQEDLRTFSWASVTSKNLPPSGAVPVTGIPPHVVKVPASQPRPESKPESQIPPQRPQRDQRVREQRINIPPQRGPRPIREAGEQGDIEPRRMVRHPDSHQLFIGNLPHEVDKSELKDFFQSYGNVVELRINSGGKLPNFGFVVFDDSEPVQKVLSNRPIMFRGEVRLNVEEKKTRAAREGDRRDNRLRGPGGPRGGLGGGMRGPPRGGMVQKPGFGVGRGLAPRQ
Technique: RNA Bind-n-Seq
Molecule type: RNA
Medium: in vitro
Concentration: 200 nM
Notes: whole 134-nt RNA, ends assumed
Together with: 150 mM KCl
Reference: input library
Direction: higher = stronger binding
Endpoint: log2 enrichment
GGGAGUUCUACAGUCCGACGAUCCACAAACAACACGCACCCACACAGACACAGAGGGAAGGGGUUGGGAUGGGGACAGGGUGCACAGCAGGGCGGGGUAGGACCCCAGCCCCUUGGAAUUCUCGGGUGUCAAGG: 1.84
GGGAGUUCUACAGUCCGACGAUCAAGUCCUGUGCUACACAUCGUAUGUACCGAAUCGGAAAAAAAGGAAAAAGGUUUGGAAAGUAUUAUGUUACGCCGUUCGGAUCUGCACUUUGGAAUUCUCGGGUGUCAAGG: -1.78
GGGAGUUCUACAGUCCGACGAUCGUCCUGUGCUACACAUCGUAUGUACCGAAUCGGAAAAAGGUUUUUUUGGUUUUUUUGGAAAGUAUUAUGUUACGCCGUUCGGAUCUGCACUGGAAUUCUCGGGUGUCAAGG: -1.55
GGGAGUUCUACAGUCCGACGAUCCUGUGCUACACAUCGUAUGUACCGAAUCGGGCCCCCCCGGCCCCCCCGGGGCCCCCCCGGGAAAGUAUUAUGUUACGCCGUUCGGAUCUGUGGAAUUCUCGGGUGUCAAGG: -0.618
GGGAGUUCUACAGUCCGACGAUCUGCCUUGCAGAUACGUGGCUUUCCUGAAGCUGUUCCUGGAGACGGCGGAGAAGCACUUCAUGGUGGGCCACCGUGUCCACUACUAUGUCUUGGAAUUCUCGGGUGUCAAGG: -1.41
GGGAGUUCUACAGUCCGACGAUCUCCUCAAGUCCUGUGCUACACAUCGUAUGUACCGAAUCGGUGGGUGGGUGGAAAGUAUUAUGUUACGCCGUUCGGAUCUGCACUUCCAGCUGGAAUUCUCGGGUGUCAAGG: 0.0218
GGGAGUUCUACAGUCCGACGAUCUGGGAGGUGGAUUUUGUUUAUGUUUUUAGCUCAUUUCCAGGGGUGGGAAUUUUUUUUUAAUAUGUGUCAUGAAUAAAGUUGUUUUUGAAAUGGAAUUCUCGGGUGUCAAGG: 0.0477
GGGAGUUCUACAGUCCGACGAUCGCAGGAAGUAAAAACAAAUGGAAAUGCUUCGGAUAGUGAAAGGGGUGGGGGUUGCUAAGGAAAGGGUGGGAUGGGAGUGGGUAAAGAGUUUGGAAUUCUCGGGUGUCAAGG: 0.818
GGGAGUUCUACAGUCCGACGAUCACCAUGCAGGUGGGCAUCUUUGAGAAGUGGGGCAAGGGGGGGAUAGGGAGGGGGGUAACACUUUGGGAACAGGUGGUCCCAGGUCGUUUCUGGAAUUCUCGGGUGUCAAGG: 1.38
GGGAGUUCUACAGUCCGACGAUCUUAAAGAAAUGUCCACAAGUAACUUUGAAUCAUCUCCUGAAGUAGAAGAAAGGCCUGCUGUGUCUUUGACUCUUGAUCAGAGCCAGUCACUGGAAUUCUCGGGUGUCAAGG: -1.01
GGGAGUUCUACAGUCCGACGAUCUGGGAGGUGGAUUUUGUUUAUUUUUUUAGCUCAUGUCCAGGGGUGGGAAUUUUUUUUUAAUAUGUGUCAUGAAUAAAGUUGUUUUUGAAAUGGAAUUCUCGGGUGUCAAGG: -0.0247
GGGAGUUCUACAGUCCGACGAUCUCAAGUCCUGUGCUACACAUCGUAUGUACCGAAUCGGAAAGGAAAAAAAGGAGGAAAGUAUUAUGUUACGCCGUUCGGAUCUGCACUUCCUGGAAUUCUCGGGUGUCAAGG: -0.778
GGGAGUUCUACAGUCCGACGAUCAGUCCUGUGCUACACAUCGUAUGUACCGAAUCGGGUUUUUGGGAGGGAAAAAAAGGGAAAGUAUUAUGUUACGCCGUUCGGAUCUGCACUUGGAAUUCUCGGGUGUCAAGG: -0.308
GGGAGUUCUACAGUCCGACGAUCACCAUGCAGGUGGGCAUCUUUGGGAAGUGGGUCAAGGGGGGGAUAGGGAGGGGGGUAACACUUUGGGAACAGGUGGUCCCAGGUCGUUUCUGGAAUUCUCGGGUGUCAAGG: 1.51

Study 3
Target: RING finger protein unkempt homolog, zinc fingers 1-6, GST-SBP tag (UNK, Homo sapiens, UniProt Q9C0B0, residues 30-357)
Technique: RNA Bind-n-Seq
Molecule type: RNA
Medium: in vitro
Concentration: not given
Notes: RNA with constant flanks, ends assumed
Reference: input RNA pool
Direction: higher = stronger binding
Endpoint: bound/input enrichment
Target sequence (chain): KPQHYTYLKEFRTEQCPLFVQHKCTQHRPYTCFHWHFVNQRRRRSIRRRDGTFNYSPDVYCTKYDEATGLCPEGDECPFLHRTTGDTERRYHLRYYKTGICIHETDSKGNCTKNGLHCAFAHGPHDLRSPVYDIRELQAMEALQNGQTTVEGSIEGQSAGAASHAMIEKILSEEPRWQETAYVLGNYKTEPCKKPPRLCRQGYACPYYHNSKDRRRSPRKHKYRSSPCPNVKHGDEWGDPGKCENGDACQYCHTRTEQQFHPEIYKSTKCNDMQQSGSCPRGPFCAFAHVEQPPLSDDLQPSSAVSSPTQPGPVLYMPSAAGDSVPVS
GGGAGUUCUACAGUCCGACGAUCAUUACUCUAAUGGAGUACUAUUCCAAAGAAGCCUUGGGUGAUUCCAAAUCUAAGAAGUCAGCCGCUUAUAAUUACGCAUGCAUACUUAUUUUGGUGGUGGUUCAGUCUUCCAGUGAUGUUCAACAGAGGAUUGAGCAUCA: 0.375 ratio
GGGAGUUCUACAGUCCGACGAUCCUUAUCUUGGUAGCCAAUGCAAUCGUGGGUGUGUGGCAGGAAAGAAAUGCUGAAAAUGCAACCGAAGCUCUUAAGGAAUAUGAGCCUGAAAUGGGCAAAGUGUAUCGACAGGACAGAAAGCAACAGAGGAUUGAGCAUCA: 0.351 ratio
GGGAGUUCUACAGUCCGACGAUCGGUCAUCGCGCCCUUUCCCCUGCCGGUGUCCUGCUCGCCGUCCCCGCCAUGCUGUCUCCCGACUUUUUGGACGAUGUGCGGCGGAUGAACAAGCGGCAGCUCUAUUAUCAAGUCCUAAAUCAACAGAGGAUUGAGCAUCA: 0.0943 ratio
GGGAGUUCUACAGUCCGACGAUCGGAGGGUGAGCACUGGAGCUGGAAAGGCCAGGAGGGCGGGGCUCGAAGUUGUGGGCGGAGACCCGGGGCGUGGCCAAAUUGAUCGUGUACUGUGAAAGAGGUACAGUGUGUUGCAAAUAGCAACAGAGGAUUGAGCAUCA: 0.773 ratio
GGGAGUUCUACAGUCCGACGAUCUACAGAGGAAGGGGUAGAGGGUAUUAUCAAGGAGGAGGAGGGAGAUACCAUCGAGGUGGCUACCGACCUGUCUGGAAUAGAAGGCACUCUAGGAGUCCUAGACGAGGUCGGUCACGGUCCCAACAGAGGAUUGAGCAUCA: 0.445 ratio
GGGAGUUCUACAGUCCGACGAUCUGGUCAAUAUUCCUAGGAAUGGGAACAUUACUCUGGGGCCAGCUUAUUUCAACAAUUCCAACCCGCCGUUUAAAAUUCCUCAAAGAAGCUGGUCAUGGAACACAAAAGGAAGAAAUACCUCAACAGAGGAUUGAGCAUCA: 0.399 ratio
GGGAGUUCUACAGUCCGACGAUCAGAACAAAUAAAGGGCUCCAGCUACGGCAUGGCAAUGACCAGCGAGUGUUCCGCCCCGAGUUUGUGUCCAACCAAGAAUUCACUGAAAGUGAAUUCAUGAAGUGGAAAGAAGCGAUGUUUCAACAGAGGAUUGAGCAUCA: 0.115 ratio
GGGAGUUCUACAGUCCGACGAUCCCAGCAGAGAAGAAAUGUGGAGCGGAAACCCAGCACGAGGGGCUAGAACUCAGGGCCGAGAAUUUGCAGGCGGUGCAGACAGACUUUAGCUCCGAUCCACUGCAGAAAGUUGUGUGCUUCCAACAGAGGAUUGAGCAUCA: 0.203 ratio
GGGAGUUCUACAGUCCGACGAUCCUUUGAUGUCUUGCAUAUAUUGCUGGUGGUAUUUAUGUGAAUUUUGUACAGUGAUUUAAUCUUGCCGUUUAUCAUUUGUACAAUUGCACUAUCUAAAUGUACUCCCUUCUGAAUGUUAAUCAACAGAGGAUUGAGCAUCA: 0.361 ratio
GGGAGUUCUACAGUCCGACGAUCGUGGUGACUGAGUUCCCUUUAUCAAACCCUUCAGUGGGCACAAAAUUGAGUGCUUGAUUUCCGGUUUUAUUUUUUUAUGAAUGUCCAAAUCUGUGUUUCCCCCUGCCCUCCCAGACUGUGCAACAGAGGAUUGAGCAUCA: 1.52 ratio
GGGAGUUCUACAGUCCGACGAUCGUUUACGAGGUCACCUCUACCAAGUACACUCGUGAUAUCUAUAAAGAGCUCCUCAUCUCCUCCGUGGCCUCACUCUUCAUGGGCUUUGGAGUCCUCUUCCUGCUGCUCUGGGUUGGCAUCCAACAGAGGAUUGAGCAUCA: 0.161 ratio

Study 4
Target: Sal-like protein 4, full length isoform B (SALL4, Homo sapiens, UniProt Q9UJQ4-2, residues 1-616)
Technique: universal PBM
Molecule type: double-stranded DNA, one strand shown
Medium: in vitro
Concentration: not given
Notes: 8-mer, flanks averaged, mean of replicates
Direction: higher = stronger binding
Endpoint: E-score
AAGCCTGT: -0.0439
ACCTCACA: -0.115
GATTCTTA: 0.237
CGCGCCAG: -0.277
CAAGCACA: -0.0649
AAACACCG: 0.0395
CTTCGATC: -0.0972
AATCTTTC: 0.116
ATTGCCTC: 0.0752
CCGAGGCG: -0.325
CTTTCTAC: 0.0646
AGTTCCTC: -0.116
TCTCCACA: 0.1
ACTATGTC: 0.165
ACCTTCAA: 0.21
GAACCCGA: -0.286
ATAGGTCC: 0.0672
AACGCTGA: -0.166
CTTGTTTC: 0.00673
CCGGATGA: -0.233

Study 5
Target: Histone acetyltransferase KAT6A, both winged helices, GST fusion (KAT6A, Homo sapiens, UniProt Q92794, residues 1-181)
Technique: protein binding microarray
Molecule type: double-stranded DNA, one strand shown
Medium: in vitro
Concentration: not given
Notes: 8-mer, flanks averaged, mean of 2 arrays, mostly near background
Reference: not given
Direction: higher = stronger binding
Endpoint: E-score
Target sequence (chain): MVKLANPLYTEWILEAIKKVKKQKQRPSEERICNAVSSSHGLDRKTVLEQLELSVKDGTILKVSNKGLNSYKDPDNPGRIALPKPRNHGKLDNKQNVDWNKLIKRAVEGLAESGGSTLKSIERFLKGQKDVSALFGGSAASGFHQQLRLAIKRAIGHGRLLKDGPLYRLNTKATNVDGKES
GGGGTAAA: -0.0142
ATAAATAG: 0.0571
GACTCTAA: -0.188
AAGGTTCA: -0.0873
CCCTTGAA: -0.0184
CGTATCAC: 0.147
GTCGAGAC: -0.0724
CGCAGCCC: 0.112
GCTATAAA: 0.0621
CGGGTAGA: 0.141
ACGGCCAC: 0.173
CTCAAAGA: 0.0135
CTCACAGA: -0.0335
TACGGCAA: 0.318
GATGGCTA: -0.0531
CTCTGACA: -0.0612
AGCTTGGG: -0.253
TCATCCAA: -0.25
GTCGAAAC: 4.5e-05
CGGGCGAC: 0.241
CACAGGCC: -0.149
CCTCCGAG: -0.068
GGTAAATA: -0.115
AATCACGT: -0.0339
CACTGTAC: -0.0739

Repeated from above (study 1):
2'F-ANA at 1 3 5 7 9 10 11 13 14: 48.2 a.u.
2'F-ANA at 2 3 5 6 8 9 10 11 14: 51.4 a.u.
2'F-ANA at 1 2 3 8 11 12: 433 a.u.
2'F-ANA at 1 2 4 6 9 10 11 14: 49.3 a.u.
2'F-ANA at 1 5 10 12: 46.9 a.u.
2'F-ANA at 1 5 7 8 12 13 15: 89.4 a.u.
2'F-ANA at 3 5 9 10 11 12 15: 110 a.u.
